# Experimental data collected from several papers.
# Protocols differ between the studies behind these lines. “And” joins repeats or separate records; there may be more than shown. ± gives the spread as reported.
# Organism: SARS-CoV-2
Compound,assay,test system,setting,EC50
CN(C)CCOC1=Cc2ccccc2Sc2ccc(Cl)cc21,"viral replication, GFP plate reader screen",,cell-based,> 100000 nM
N#C[C@@]1(c2ccc3c(N)ncnn23)O[C@H](CO)[C@@H](O)[C@H]1O,viral replication,"A549-ACE2-TMPRSS2, WA1",24 h,2200 nM
Cc1cccn2c(=O)c3cc(C(=O)Nc4ccc(N(C)C)cc4)n(C)c3nc12,viral replication,Vero E6,,37.6 nM
O=C(NCc1ccc(F)cc1)C(=O)NCC(c1cccnc1)N1CCN(c2ccccc2)CC1 (stereo not drawn),"plaque formation, plaque reduction",Vero E6,72 h,20900 ± 8500 nM
CCN(CC)CCNC(=O)c1c(C)[nH]c(/C=C2\C(=O)Nc3ccc(F)cc32)c1C,viral replication,"Vero E6, USA-WA1/2020",,2400 nM
O=c1c2ccccc2[se]n1-c1ccccc1,viral replication,Vero E6,96 h,> 100000 nM
CO[C@@H]1[C@@H](OC)[C@H](C)[C@@](O)(CC(=O)O)O[C@H]1[C@H](C)[C@H]1O[C@@]2(CC[C@@](C)([C@H]3CC[C@@](C)([C@@H]4O[C@@H]([C@H]5O[C@](C)(O)[C@H](C)C[C@@H]5C)C[C@@H]4O[C@@H]4C[C@H](OC)[C@@H](OC)[C@H](C)O4)O3)O2)C[C@H](O)[C@H]1C,cytopathic effect,Vero E6-hTMPRSS2,,64 nM
COc1cccc2c(N3CCc4ccccc4C3C)nc(Nc3ccc(F)cc3C)nc12 (stereo not drawn),viral replication,"293T-ACE2, USA-WA1/2020",24 h,1100 nM
O=C[C@H](C[C@@H]1CCNC1=O)NC(=O)[C@H](CC1CCCCC1)NC(=O)c1cc2ccccc2[nH]1,viral replication,"Vero E6, 2019-nCoV-WIV04",10% human serum,1100 nM
Nc1nc(N)c2nnn([C@@H]3C(F)=C(CO)[C@@H](O)[C@H]3O)c2n1,"viral replication, spike protein immunostaining",Vero,48 h,> 100000 nM
CC(C)(C)c1ccc(N(Cc2cc(Cl)cs2)C(=O)Cc2cncc3ccccc23)cc1,viral replication,"Calu-3, Omicron BA.2",,2500 nM
COc1ccc(-c2cc(C(F)(F)F)n3ncc(C(=O)Nc4sc5c(c4C(N)=O)CCCC5)c3n2)cc1,"plaque formation, plaque reduction",Vero E6,72 h,9800 ± 4500 nM
COc1ccc(N(Cc2cc(Cl)cs2)C(=O)Cc2cncc3ccccc23)cc1,viral replication,"Calu-3, Omicron BA.1",,1000 nM
C#C[C@]1(O)CC[C@H]2[C@@H]3CCc4cc(OC5CCCC5)ccc4[C@H]3CC[C@@]21C,"viral replication, high-content imaging screen",,cell-based,> 100000 nM
[N-]=[N+]=N[C@]1(CO)O[C@@H](n2ccc(N)nc2=O)[C@@H](F)[C@@H]1O,viral replication,"A549-hACE2, USA-WA1/2020 nLuc reporter",,> 100000 nM
CC(=O)O[C@H]1CC[C@@]2(C)C(=CC[C@@H]3[C@@H]2CC[C@]2(C)C(c4cccnc4)=CC[C@@H]32)C1,"viral replication, GFP plate reader screen",,cell-based,> 100000 nM
Nc1nc(=O)n([C@@H]2CS[C@H](CO)O2)cc1F,viral replication,Vero,48 h,> 20000 nM
Cc1cccc(/C=N/Nc2cc(N3CCOCC3)nc(OCCc3ccccn3)n2)c1,viral replication,"Huh-7-ACE2, USA-WA1/2020",24 h,88 nM
Cc1cc(NC(=O)c2cc3c(=O)n4cccc(C)c4nc3n2C)ccc1Br,"viral replication, qPCR",Vero E6,,108 ± 3.04 nM
CN(C)c1ccc(N(Cc2cc(Cl)cs2)C(=O)Cc2cncc3ccccc23)cc1,viral replication,"Calu-3, Omicron BA.1",,600 nM
Fc1ccc(-c2ccc(CN3CCN(c4cccc5ccoc45)CC3)[nH]2)cc1,viral replication,"Huh-7-ACE2, USA-WA1/2020",24 h,2700 nM
Cc1cc(O[C@@H](CCC(F)(F)F)c2ccc(C(=O)NCCC(=O)O)cc2)cc(C)c1-c1ccc(C(C)(C)C)cc1,"viral replication, GFP plate reader screen",,cell-based,> 10000 nM
CCC(C)NC(=O)c1ccccc1NC(=O)c1cccc(S(=O)(=O)Nc2ccccc2)c1 (stereo not drawn),"plaque formation, plaque reduction",Vero E6,72 h,9400 ± 4500 nM
NCC[C@H](Oc1ccc(C(F)(F)F)cc1)c1ccccc1,"viral replication, high-content imaging screen",,cell-based,> 100000 nM
CCN(CCO)CCCC(C)Nc1ccnc2cc(Cl)ccc12 (stereo not drawn),viral replication,Omicron,,2600 ± 360 nM
Cc1ccc(OCCN)cc1C(=O)N[C@H](C)c1cccc(-c2ccoc2)c1,viral replication,Caco-2,24 h,≤ 6000 nM
CCC(CC)COC(=O)[C@H](C)N[P@](=O)(OC[C@H]1O[C@@](C#N)(c2ccc3c(N)ncnn23)[C@H](O)[C@@H]1O)Oc1ccccc1,"viral replication, RT-qPCR","VeroE6, WK-521",,5000 ± 50 nM
CCC(CC)COC(=O)[C@H](C)N[P@](=O)(OC[C@H]1O[C@@](C#N)(c2ccc3c(N)ncnn23)[C@H](O)[C@@H]1O)Oc1ccccc1,"viral replication, qRT-PCR of viral RNA","Calu-3, Washington",,200 ± 100 nM
COC1=CC(=O)N(C(=O)/C=C/[C@H](C)NC(=O)[C@H](CC(C)C)NC(=O)[C@H](CC2CCCCC2)NC(=O)C2CCN(C)CC2)[C@H]1Cc1c[nH]c2ccccc12,viral cytopathic effect,A549-ACE2,,> 5000 nM
Cc1ccc(NC(=O)c2cc3c(=O)n4cccc(C)c4nc3n2C)cc1Cl,viral replication,Vero E6,,104 nM
CC(=O)N[C@@H](CC(C)C)C(=O)N[C@@H](CC(C)C)C(=O)N[C@H](C=O)CCCNC(=N)N,viral replication,Huh-7,48 h,10600 nM
O=C(CCC(=O)NNC(=O)C(c1ccccc1)c1ccccc1)NCc1ccccc1,"plaque formation, plaque reduction",Vero E6,72 h,> 50000 nM
CCN(CC)CCCNc1cc(OC)cc2cccnc12,"viral replication, GFP plate reader screen",BetaCov/Belgium/GHB-03021/2020,cell-based,24600 nM
CC(C)(C)NC(=O)N[C@H](C(=O)N1C[C@H]2[C@@H]([C@H]1C(=O)NC(CC1CCC1)C(=O)C(N)=O)C2(C)C)C(C)(C)C (stereo partly drawn),"plaque formation, plaque reduction",Vero E6,72 h,22000 ± 2600 nM
CC(C)(C)[C@H](NC(=O)C(F)(F)F)C(=O)N1C[C@H]2[C@@H]([C@H]1C(=O)N[C@H](C#N)C[C@@H]1CCNC1=O)C2(C)C,viral replication,"Caco-2, icSARS-CoV-2-nLuc reporter",,40 nM
CC(C)(C)[C@H](NC(=O)C(F)(F)F)C(=O)N1C[C@H]2[C@@H]([C@H]1C(=O)N[C@H](C#N)C[C@@H]1CCNC1=O)C2(C)C,"viral replication, qRT-PCR of viral RNA","Vero, Washington",,3700 ± 100 nM
CCC(CC)COC(=O)[C@H](C)N[P@](=O)(OC[C@H]1O[C@@](C#N)(c2ccc3c(N)ncnn23)[C@H](O)[C@@H]1O)Oc1ccccc1,viral replication,"293T-ACE2, USA-WA1/2020",24 h,7.2 nM
CC(C)C[C@H](NC(=O)c1cc2c(F)cc(F)cc2[nH]1)C(=O)N[C@@H](C[C@@H]1CCNC1=O)C(=O)c1nc2cc(F)ccc2s1,"viral replication, RT-qPCR","VeroE6, WK-521",,2800 ± 200 nM
C[C@H](NC(=O)[C@@H](c1cccnc1)N(C(=O)C(Cl)Cl)c1ccc(-c2ccccc2)cc1)c1ccccc1,viral replication,Caco-2 hACE2,,2050 nM
COc1cc(Nc2c(C#N)cnc3cc(OCCCN4CCN(C)CC4)c(OC)cc23)c(Cl)cc1Cl,,"Vero C1008, WIV04",24 h,2450 nM
COc1cc([C@H]2OC[C@]3(O)[C@@H](c4ccc(O)c(OC)c4)OC[C@H]23)ccc1O,viral replication,mNeonGreen reporter,,24300 nM
N#C[C@@]1(n2ccc(N)nc2=O)O[C@H](CO)[C@@H](O)[C@H]1O,"viral replication, qRT-PCR of viral RNA","Caco-2, Washington",,400 ± 200 nM
Cn1cnc(Cn2c(=O)[nH]/c(=N\c3cc4cn(C)nc4cc3Cl)n(Cc3cc(F)c(F)cc3F)c2=O)n1,,"Vero C1008, XBB.1",,90 nM and 80 nM
CCNC/C=C\CNCCCCNCCCCNC/C=C\CNCC,viral replication,"Huh-7-ACE2, USA-WA1/2020",24 h,6000 nM
OCCN1CCN(CCC=C2c3ccccc3Sc3ccc(C(F)(F)F)cc32)CC1,"viral replication, high-content imaging screen",,cell-based,> 100000 nM
CSc1ccc(N(Cc2cc(Cl)cs2)C(=O)Cc2cncc3ccccc23)cc1,,"Calu-3, B.1.617.2 Delta",,6700 nM
CCOc1ccc(NC(=O)C(=O)NCCc2csc3nc(-c4cccs4)nn23)cc1,"plaque formation, plaque reduction",Vero E6,72 h,> 50000 nM
CC(C)(C)[C@H](NC(=O)C(F)(F)F)C(=O)N1C[C@H]2[C@@H]([C@H]1C(=O)N[C@@H](C[C@@H]1CCNC1=O)C(=O)c1nc3c(F)ccc(F)c3s1)C2(C)C,viral replication,"Vero C1008, JPN/TY/WK-521 (ancestral Wuhan)",,92 nM
NC(=O)c1c(NC(=O)c2cnn3c(C(F)F)cc(-c4ccccc4)nc23)sc2c1CCCC2,"plaque formation, plaque reduction",Vero E6,72 h,> 50000 nM
CCN(CC)CCNC(=O)c1cc(Cl)c(NC(=O)COc2ccc(Cl)cc2)cc1OC,"viral replication, high-content imaging screen",,cell-based,> 100000 nM
N#C[C@@]1(c2ccc3c(N)ncnn23)O[C@H](CO)[C@@H](O)[C@H]1O,viral RNA copies,"Vero C1008, VOC-202012/01","48 h, 50% decrease endpoint",16000 ± 810 nM

# Excerpt of the above:
Compound,assay,test system,setting,EC50
N#C[C@@]1(c2ccc3c(N)ncnn23)O[C@H](CO)[C@@H](O)[C@H]1O,viral RNA copies,"Vero C1008, VOC-202012/01","48 h, 50% decrease endpoint",16000 ± 810 nM
CCN(CC)CCNC(=O)c1cc(Cl)c(NC(=O)COc2ccc(Cl)cc2)cc1OC,"viral replication, high-content imaging screen",,cell-based,> 100000 nM
[N-]=[N+]=N[C@]1(CO)O[C@@H](n2ccc(N)nc2=O)[C@@H](F)[C@@H]1O,viral replication,"A549-hACE2, USA-WA1/2020 nLuc reporter",,> 100000 nM
